Experimental data gathered from unrelated publications.
Lines come from different studies, so protocols differ.
FLT3 D835Y: Receptor-type tyrosine-protein kinase FLT3 (FLT3, Homo sapiens, UniProt P36888, D835Y)
FLT3 N841I: Receptor-type tyrosine-protein kinase FLT3 (FLT3, Homo sapiens, UniProt P36888, N841I)
FLT3 R834Q: Receptor-type tyrosine-protein kinase FLT3 (FLT3, Homo sapiens, UniProt P36888, R834Q)
FLT3: Receptor-type tyrosine-protein kinase FLT3 (FLT3, Homo sapiens, UniProt P36888)

| SMILES | target | test | setting | how to read | remaining binding [%] |
| --- | --- | --- | --- | --- | --- |
| CNC1C[S+]2CC[S+]3CC[S+](C1)[Ru-4]321([N]=C=S)[n]2c3ccc(OC)cc3c3c4c(c5cc(F)c[n+]1c5c32)C(=O)NC4=O (centres unmarked) | FLT3 D835Y | KinomeScan | 0.1 µM | relative to: untreated | 12 |
| Nc1ncc2c(n1)-c1c([nH]c3ccc(C4=CCOCC4)cc13)CCC2 | FLT3 N841I | binding, competition with immobilised ligand | 1 µM | – | 94 |
| CCN1CCN(Cc2ccc(NC(=O)c3ccc(C)c(NC(=O)c4cncc(-c5cccs5)c4)c3)cc2C(F)(F)F)CC1 | FLT3 N841I | binding, competition with immobilised ligand | 1 µM | – | 0 |
| Cc1ccc(-c2c(/C=C(\C#N)C(=O)NC(C)C)n(CCCO)c3ncnc(N)c23)cc1 | FLT3 N841I | cell-free assay, competition with immobilised ligand | 1 µM | – | 71 |
| C=CC(=O)N1CCc2ccc(-n3c(=O)ccc4cnc5ccc(-c6cnn(C)c6)cc5c43)cc21 | FLT3 D835Y | KINOMEscan | 1 µM | relative to: DMSO control | 100 |
| COc1c(Cl)cccc1Nc1c(-c2ccncc2C#C[C@@]2(C)CCCN2C(=O)/C=C/CN(C)C)[nH]c2c1C(=O)NCC2 | FLT3 R834Q | binding, competition with immobilised ligand | 3 µM | – | 86 |
| Cc1cnc2nc1Nc1cccc(c1)COC/C=C/COCc1cc(ccc1OCCN1CCOCC1)N2 | FLT3 N841I | binding | 0.1 µM | – | 1.3 |
| COc1cc(Nc2nccc(-c3cnn4nc(OC)ccc34)n2)cc(C(F)(F)F)c1 | FLT3 | binding, competition with immobilised ligand | 1 µM | – | 55 |
| CC(C)=CC1OC(C)(C)C2C=C3C(=O)C(Cl)=CC(O)C3C3C(O)C4OC4C(=O)C132 (centres unmarked) | FLT3 R834Q | cell-free assay, competition with immobilised ligand | 10 µM | – | 100 |
| CCN1CCN(Cc2ccc(C(=O)Nc3ccc(C)c(NCc4cnc5[nH]ccc5c4OC)c3)cc2C(F)(F)F)CC1 | FLT3 | binding, competition with immobilised ligand | 1 µM | – | 0.2 |
| C=C1CCCCCCCCCC(CO)C1=O (centres unmarked) | FLT3 | cell-free assay, competition with immobilised ligand | 10 µM | – | 99 |
| C=CC(=O)N1CCCC(n2c(=O)c3ncccc3n(Cc3ccc(Oc4ccccc4)cc3)c2=O)C1 (centres unmarked) | FLT3 D835Y | binding, competition with immobilised ligand | 1 µM | – | 100 |
| CNS(=O)(=O)Nc1nccc(Cc2c(C)c3ccc(Oc4ncccc4F)cc3oc2=O)c1F | FLT3 | binding, competition with immobilised ligand | 10 µM | – | 100 |
| CNC(=O)C1CCN(c2cc(C)c(F)cc2NC(=O)c2ccc(-c3cc(O)ccc3C)c(C)c2)CC1 | FLT3 N841I | binding, competition with immobilised ligand | 1 µM | – | 100 |

Repeated from above:
| SMILES | target | test | setting | how to read | remaining binding [%] |
| --- | --- | --- | --- | --- | --- |
| CCN1CCN(Cc2ccc(NC(=O)c3ccc(C)c(NC(=O)c4cncc(-c5cccs5)c4)c3)cc2C(F)(F)F)CC1 | FLT3 N841I | binding, competition with immobilised ligand | 1 µM | – | 0 |
| CC(C)=CC1OC(C)(C)C2C=C3C(=O)C(Cl)=CC(O)C3C3C(O)C4OC4C(=O)C132 (centres unmarked) | FLT3 R834Q | cell-free assay, competition with immobilised ligand | 10 µM | – | 100 |
